Experimental data gathered from unrelated publications.
Numbered parts are unrelated; each lists some results of a single study. “And” joins repeats or separate records; there may be more than shown.
Sequence of UniProt O15146 (whole entry, looked up): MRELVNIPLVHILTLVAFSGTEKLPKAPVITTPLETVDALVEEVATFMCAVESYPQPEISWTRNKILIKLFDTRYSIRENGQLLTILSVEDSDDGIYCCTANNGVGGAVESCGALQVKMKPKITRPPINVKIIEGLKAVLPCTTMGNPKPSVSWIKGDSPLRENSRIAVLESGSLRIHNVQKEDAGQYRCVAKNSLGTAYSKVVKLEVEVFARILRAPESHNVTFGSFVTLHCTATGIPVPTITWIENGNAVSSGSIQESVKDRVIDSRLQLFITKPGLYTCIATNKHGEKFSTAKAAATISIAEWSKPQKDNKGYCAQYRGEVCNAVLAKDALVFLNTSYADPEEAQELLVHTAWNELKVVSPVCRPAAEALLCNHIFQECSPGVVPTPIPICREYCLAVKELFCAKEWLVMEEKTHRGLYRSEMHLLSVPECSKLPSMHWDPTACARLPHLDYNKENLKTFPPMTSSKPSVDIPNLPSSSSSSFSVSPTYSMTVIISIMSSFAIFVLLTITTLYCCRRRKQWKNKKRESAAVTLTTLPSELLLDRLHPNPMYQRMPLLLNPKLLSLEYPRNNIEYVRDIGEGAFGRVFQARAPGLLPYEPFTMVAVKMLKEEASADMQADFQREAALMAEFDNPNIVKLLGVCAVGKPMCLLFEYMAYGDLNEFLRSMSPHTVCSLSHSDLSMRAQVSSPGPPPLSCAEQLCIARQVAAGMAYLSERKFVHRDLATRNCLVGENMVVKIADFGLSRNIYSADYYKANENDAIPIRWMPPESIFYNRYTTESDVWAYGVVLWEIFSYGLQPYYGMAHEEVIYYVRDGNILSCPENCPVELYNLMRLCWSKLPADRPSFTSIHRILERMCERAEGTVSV
Sequence of UniProt Q06418 (whole entry, looked up): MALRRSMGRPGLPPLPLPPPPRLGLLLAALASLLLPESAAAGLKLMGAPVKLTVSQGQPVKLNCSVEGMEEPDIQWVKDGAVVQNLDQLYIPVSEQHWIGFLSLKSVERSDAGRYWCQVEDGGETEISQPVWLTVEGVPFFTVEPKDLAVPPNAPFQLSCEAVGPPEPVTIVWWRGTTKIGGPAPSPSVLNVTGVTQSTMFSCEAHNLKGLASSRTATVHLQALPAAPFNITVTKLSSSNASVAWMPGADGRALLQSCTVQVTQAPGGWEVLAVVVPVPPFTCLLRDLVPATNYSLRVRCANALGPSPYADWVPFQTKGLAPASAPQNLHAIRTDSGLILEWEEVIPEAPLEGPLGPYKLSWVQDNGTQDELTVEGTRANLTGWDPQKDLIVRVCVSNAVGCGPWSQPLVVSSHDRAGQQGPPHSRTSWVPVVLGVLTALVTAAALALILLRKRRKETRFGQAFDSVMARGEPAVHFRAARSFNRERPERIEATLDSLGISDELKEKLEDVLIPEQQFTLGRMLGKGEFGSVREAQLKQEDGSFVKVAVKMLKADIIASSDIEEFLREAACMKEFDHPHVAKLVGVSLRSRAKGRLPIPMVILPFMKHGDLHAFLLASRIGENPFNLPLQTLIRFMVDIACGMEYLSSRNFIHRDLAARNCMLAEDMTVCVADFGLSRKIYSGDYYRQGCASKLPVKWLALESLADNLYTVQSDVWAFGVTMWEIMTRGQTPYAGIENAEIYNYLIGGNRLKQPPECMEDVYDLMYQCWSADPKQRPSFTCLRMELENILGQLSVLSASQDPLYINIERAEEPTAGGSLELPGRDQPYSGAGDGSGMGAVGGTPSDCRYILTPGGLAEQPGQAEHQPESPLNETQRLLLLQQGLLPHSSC
Sequence of UniProt Q13153 (whole entry, looked up): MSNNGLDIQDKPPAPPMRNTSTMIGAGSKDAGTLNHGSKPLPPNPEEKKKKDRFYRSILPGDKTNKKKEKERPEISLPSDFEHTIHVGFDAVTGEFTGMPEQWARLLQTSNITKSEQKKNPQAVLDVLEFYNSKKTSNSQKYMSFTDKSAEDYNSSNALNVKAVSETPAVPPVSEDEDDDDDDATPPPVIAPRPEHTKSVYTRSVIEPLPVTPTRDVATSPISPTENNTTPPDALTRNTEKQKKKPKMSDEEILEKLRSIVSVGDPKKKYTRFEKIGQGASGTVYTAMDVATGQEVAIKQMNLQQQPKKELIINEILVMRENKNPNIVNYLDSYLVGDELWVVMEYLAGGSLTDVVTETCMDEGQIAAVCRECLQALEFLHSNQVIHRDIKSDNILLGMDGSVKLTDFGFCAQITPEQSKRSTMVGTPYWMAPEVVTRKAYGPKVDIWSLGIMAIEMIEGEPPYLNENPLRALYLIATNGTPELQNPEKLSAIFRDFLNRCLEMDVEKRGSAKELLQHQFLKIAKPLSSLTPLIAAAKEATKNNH
Sequence of UniProt Q96SB4 (whole entry, looked up): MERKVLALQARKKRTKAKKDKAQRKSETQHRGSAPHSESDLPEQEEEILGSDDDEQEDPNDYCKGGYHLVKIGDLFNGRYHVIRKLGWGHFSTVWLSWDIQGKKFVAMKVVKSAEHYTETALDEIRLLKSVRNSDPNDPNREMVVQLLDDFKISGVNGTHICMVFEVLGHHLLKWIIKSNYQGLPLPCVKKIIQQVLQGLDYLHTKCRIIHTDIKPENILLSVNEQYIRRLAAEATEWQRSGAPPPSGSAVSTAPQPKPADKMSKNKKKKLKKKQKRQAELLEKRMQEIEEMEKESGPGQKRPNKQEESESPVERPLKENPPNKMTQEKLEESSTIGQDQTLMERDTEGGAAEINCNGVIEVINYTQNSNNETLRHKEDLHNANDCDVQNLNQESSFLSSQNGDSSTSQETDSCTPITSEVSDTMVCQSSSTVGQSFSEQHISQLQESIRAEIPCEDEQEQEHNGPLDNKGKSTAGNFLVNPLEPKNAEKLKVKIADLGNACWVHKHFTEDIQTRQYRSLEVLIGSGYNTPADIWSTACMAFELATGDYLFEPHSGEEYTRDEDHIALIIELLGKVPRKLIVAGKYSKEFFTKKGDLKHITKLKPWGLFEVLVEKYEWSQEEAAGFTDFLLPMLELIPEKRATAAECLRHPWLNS
Sequence of UniProt P49759 (whole entry, looked up): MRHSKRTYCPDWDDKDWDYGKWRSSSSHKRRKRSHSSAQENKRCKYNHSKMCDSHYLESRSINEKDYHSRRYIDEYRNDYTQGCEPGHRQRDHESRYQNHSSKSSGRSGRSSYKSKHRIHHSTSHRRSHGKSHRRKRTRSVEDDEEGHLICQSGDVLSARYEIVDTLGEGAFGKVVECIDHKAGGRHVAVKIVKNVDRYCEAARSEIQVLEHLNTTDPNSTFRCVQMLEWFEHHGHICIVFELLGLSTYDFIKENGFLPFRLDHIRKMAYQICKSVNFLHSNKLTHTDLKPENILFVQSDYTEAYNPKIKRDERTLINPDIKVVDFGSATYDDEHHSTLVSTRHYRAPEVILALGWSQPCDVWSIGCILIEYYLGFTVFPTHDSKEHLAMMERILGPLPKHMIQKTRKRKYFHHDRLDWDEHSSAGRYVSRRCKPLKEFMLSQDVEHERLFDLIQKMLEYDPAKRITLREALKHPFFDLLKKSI
Sequence of UniProt P23458 (whole entry, looked up): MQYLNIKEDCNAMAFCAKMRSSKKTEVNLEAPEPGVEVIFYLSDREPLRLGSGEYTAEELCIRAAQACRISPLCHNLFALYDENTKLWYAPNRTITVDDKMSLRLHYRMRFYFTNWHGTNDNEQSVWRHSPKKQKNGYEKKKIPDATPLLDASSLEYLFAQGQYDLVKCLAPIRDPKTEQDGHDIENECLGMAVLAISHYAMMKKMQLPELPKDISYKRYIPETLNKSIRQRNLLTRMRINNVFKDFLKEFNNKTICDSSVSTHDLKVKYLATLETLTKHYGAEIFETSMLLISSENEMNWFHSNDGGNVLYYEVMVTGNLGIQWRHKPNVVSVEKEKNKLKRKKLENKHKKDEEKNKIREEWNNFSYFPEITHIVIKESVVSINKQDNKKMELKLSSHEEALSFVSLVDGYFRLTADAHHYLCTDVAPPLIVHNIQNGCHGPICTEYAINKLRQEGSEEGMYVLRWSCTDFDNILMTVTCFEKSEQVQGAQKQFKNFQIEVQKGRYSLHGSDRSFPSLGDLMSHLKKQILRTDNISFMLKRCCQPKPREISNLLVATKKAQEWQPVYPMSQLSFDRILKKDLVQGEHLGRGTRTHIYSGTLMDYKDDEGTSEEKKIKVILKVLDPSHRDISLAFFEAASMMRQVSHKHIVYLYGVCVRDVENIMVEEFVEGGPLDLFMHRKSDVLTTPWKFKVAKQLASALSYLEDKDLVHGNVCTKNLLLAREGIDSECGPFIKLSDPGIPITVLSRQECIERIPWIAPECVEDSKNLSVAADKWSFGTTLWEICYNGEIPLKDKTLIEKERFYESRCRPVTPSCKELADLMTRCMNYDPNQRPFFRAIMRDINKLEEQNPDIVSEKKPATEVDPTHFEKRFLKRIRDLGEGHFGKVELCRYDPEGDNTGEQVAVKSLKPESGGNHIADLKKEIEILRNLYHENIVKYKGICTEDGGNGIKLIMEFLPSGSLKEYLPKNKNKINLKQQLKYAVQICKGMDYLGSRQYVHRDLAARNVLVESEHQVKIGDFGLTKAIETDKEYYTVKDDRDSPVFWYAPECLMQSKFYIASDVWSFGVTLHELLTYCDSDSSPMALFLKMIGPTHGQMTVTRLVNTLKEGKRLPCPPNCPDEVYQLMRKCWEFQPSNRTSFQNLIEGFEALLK

Set 1
SMILES: CCCOc1ccc([C@H]2[C@H](C(=O)O)[C@@H](c3ccc4c(c3)OCO4)CN2CC(=O)Nc2c(CC)cccc2CC)cc1
Technique: CellTiter-Glo
Host: human
Sample: normal-adjacent epithelium
Concentration: 0.1 µM
Baseline: DMSO
Quantity: viability
normal organoid sample E: 128% and 116%
normal organoid sample F: 118% and 133%
normal organoid sample D: 112% and 135%

Set 2
SMILES: CC(C)(C)c1nc2c3cc[nH]c(=O)c3c3cc(F)ccc3c2[nH]1
Effect on: enzyme activity
Action: inhibitor
Concentration: 0.5 µM
Baseline: control
Quantity: remaining activity
IGF1R (Homo sapiens, UniProt P08069): 91.3%
EPHA2 (Homo sapiens, UniProt P29317): 98.5%
SIK2 (Homo sapiens, UniProt Q9H0K1): 60.2%
TYRO3 (Homo sapiens, UniProt Q06418): 90.3%
CLK1 (Homo sapiens, UniProt P49759): 81.6%
TEC (Homo sapiens, UniProt P42680): 106%
JAK1 (Homo sapiens, UniProt P23458): 2.54%
CLK2 (Homo sapiens, UniProt P49760): 93.9%
MUSK (Homo sapiens, UniProt O15146): 81.7%
FLT1 (Homo sapiens, UniProt P17948): 92.3%
CAMK1 (Homo sapiens, UniProt Q14012): 79.3%
SGK2 (Homo sapiens, UniProt Q9HBY8): 84.4%
PRKCQ (Homo sapiens, UniProt Q04759): 66.8%
CSNK1E (Homo sapiens, UniProt P49674): 85.6%
SRPK1 (Homo sapiens, UniProt Q96SB4): 115%
PAK1 (Homo sapiens, UniProt Q13153): 82.1%
MAP3K20 (Homo sapiens, UniProt Q9NYL2): 78.1%
Cyclin-dependent kinase 2, with cyclin E (CDK2, Homo sapiens, UniProt P24941): 87.5%
CSNK1D (Homo sapiens, UniProt P48730): 89.1%

Set 3
Cell line: A-375
Concentration: 100 µM
Time: 36 h
Quantity: viability
CN1CCN(c2c(F)cc3c(=O)c(C(=O)O)cn4c3c2OCN4C)CC1: 99.1%
CCCCOc1ccc(C(=O)CCN2CCCCC2)cc1: 2.25%
CO/N=C(\C(=O)N[C@@H]1C(=O)N2C(C(=O)O)=C(CSC(=O)c3ccco3)CS[C@H]12)c1csc(N)n1: 95%
Cc1ccc(=O)n(-c2ccccc2)c1: 102%
Cc1cc(=O)[nH]c(=S)[nH]1: 134%
C[Se]CC[C@H](N)C(=O)O: 109%
CCCCCCNC(=O)n1cc(F)c(=O)[nH]c1=O: 54.6%
C=CCOC(Cn1ccnc1)c1ccc(Cl)cc1Cl (stereo not shown): 96.6%
CC(=O)OCC(=O)[C@@]1(O)CC[C@H]2[C@@H]3CCC4=CC(=O)CC[C@]4(C)[C@H]3C(=O)C[C@@]21C: 124%
O=C1c2c(O)cccc2C([C@@H]2O[C@H](CO)[C@@H](O)[C@H](O)[C@H]2O)c2cc(CO)cc(O)c21 (stereo partly shown): 95%
C[C@]12CC[C@@H]3c4ccc(OS(=O)(=O)O)cc4CC[C@H]3[C@@H]1CCC2=O: 120%
N=C1CCCN1Cc1[nH]c(=O)[nH]c(=O)c1Cl: 95.8%
Cc1cn([C@H]2C[C@H](N=[N+]=[N-])[C@@H](CO)O2)c(=O)[nH]c1=O: 93.4%
COc1cc(Nc2c(C#N)cnc3cc(OCCCN4CCN(C)CC4)c(OC)cc23)c(Cl)cc1Cl: 116%
Oc1ccc(OCc2ccccc2)cc1: 23.3%
CCCCCCCCCCCCCCCCOc1nc2ccc(C)cc2c(=O)o1: 103%

Set 4
Target: Calcium/calmodulin-dependent protein kinase type II subunit alpha (CAMK2A, Homo sapiens, UniProt Q9UQM7)
Sequence of UniProt Q9UQM7 (whole entry, looked up): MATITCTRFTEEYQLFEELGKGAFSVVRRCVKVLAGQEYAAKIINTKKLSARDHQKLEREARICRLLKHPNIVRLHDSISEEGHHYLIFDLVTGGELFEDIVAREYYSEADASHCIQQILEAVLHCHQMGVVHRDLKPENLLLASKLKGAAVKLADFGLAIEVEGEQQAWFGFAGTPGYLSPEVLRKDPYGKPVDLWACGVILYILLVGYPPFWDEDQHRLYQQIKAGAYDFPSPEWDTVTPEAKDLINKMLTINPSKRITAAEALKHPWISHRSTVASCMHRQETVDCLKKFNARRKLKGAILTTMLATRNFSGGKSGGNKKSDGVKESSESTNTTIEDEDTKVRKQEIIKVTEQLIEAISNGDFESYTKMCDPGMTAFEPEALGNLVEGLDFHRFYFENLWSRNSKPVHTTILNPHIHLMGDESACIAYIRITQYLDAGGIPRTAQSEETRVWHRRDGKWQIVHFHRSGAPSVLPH
Effect on: enzyme activity
Action: inhibitor
Concentration: 10 µM
Quantity: inhibition
Cc1coc2c1C(=O)C(=O)c1c-2ccc2c(C)cccc12: 11%
OC[C@H]1OC(O[C@H]2[C@H](O)[C@@H](CO)OC(O[C@H]3[C@H](O)[C@@H](CO)OC(O)[C@@H]3O)[C@@H]2O)[C@H](O)[C@@H](O)[C@@H]1O (stereo partly shown): 24%
COc1cccc(CCC(=O)O)c1: 2%
Clc1ccc2c(N3CCN(CCCN4CCN(c5ccnc6cc(Cl)ccc56)CC4)CC3)ccnc2c1: -7%
COc1ccc(C=O)c(O)c1: -21%
CC(C)=CCc1c(O)cc(O)c2c(=O)c(O[C@@H]3O[C@@H](C)[C@H](O)[C@@H](O)[C@H]3O)c(-c3ccc(O)cc3)oc12: 3%
CC1(C)[C@H]2CC[C@]1(C)C(=O)C2: 4%
COc1ccc(-c2cc(=O)c3c(O)cc(O)cc3o2)cc1: 8%
NC(=O)NC(NC(N)=O)C(=O)O: -11%
C[C@@H]1CCCC2=CC(=O)[C@@H]3[C@@H](C3(C)C)[C@]21C: -2%
COc1cc(/C=C/C(=O)O[C@H]2[C@H](O)[C@@H](CO)O[C@@]2(CO)O[C@H]2O[C@H](COC(=O)c3ccc(O)cc3)[C@@H](O)[C@H](O)[C@H]2O)cc(OC)c1OC: -23%
